Experimental data pooled from the literature.
Lines come from different studies, so protocols differ. ± gives the spread as reported.
Chain of UniProt P08183 (whole entry, looked up): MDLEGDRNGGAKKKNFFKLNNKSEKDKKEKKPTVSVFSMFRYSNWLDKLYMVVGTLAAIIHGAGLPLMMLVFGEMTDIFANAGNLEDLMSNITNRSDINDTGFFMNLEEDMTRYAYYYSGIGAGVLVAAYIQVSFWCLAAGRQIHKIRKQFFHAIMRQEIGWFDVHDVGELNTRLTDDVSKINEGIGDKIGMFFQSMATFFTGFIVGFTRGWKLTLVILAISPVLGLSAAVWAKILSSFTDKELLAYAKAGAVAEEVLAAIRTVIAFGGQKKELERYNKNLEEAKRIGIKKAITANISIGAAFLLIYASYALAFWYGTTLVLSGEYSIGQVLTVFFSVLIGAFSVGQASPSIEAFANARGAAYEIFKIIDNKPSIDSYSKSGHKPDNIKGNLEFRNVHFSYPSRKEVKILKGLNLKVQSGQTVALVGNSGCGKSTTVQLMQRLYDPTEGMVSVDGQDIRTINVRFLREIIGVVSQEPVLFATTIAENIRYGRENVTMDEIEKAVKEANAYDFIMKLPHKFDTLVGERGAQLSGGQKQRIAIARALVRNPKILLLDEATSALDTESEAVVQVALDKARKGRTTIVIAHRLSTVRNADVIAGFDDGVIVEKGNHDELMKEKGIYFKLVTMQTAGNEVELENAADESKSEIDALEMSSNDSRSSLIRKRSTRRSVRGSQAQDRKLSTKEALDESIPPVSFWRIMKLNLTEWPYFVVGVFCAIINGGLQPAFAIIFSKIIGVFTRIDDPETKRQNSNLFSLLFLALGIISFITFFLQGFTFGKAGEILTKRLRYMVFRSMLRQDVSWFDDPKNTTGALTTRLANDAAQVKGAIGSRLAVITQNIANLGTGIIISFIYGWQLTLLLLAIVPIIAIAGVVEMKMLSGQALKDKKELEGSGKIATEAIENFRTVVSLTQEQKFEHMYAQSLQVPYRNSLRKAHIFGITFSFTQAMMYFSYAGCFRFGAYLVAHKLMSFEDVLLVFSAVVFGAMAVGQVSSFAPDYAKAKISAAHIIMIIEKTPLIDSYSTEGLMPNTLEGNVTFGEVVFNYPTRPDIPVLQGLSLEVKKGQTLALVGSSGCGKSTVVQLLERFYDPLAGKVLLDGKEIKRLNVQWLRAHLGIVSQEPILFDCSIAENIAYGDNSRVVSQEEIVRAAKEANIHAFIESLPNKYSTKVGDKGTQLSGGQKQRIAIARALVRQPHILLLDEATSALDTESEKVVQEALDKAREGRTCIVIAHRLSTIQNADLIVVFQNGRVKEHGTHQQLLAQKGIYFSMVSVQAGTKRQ

Under “revertant fold increase”, `CC(=O)N1CCC(C(=O)N2CCN3C(=O)c4cc(-c5ccccc5)ccc4NC(=O)C3C2)CC1` (stereo not shown) is recorded as 1.3 (Escherichia coli; WP2 uvrA; 50 µg/plate, with rat liver S9; reference: vehicle).
For `CCc1ccc(CC/C=C/c2ccc3c(c2)C(=O)CC3)cc1`, “mean platelet volume” read 10.7 fL (Sprague-Dawley rat, female, blood; oral, 450 mg/kg/day, 14 days).
With `CC(C)CC(=O)OC[C@H]1O[C@@](C#N)(c2ccc3c(N)ncnn23)[C@H](O)[C@@H]1O` the efflux ratio was over 3.18 (ATP-dependent translocase ABCB1 (ABCB1, Homo sapiens, UniProt P08183); Caco-2; 0.9 µM, 2 h).
Under “grade 1-2 T-wave abnormality”, `COc1cc2c(Oc3ccc4[nH]c(C)cc4c3F)ccnc2cc1OCC1(N)CC1` is recorded as 9.1% (paediatric refractory sarcoma patients; 12 mg).
`O=C1c2ccccc2C(=O)c2ccccc21` gave a cell viability of 65.1 ± 5.75% (HepaRG co-cultured with HK-2; MTT; 66.67 µM, 48 h; reference: untreated control).
For `O=c1ccc2ccccc2o1`, “point of departure” read 801 µM (HepG2; refers to: IL-8; 24 h).
With `Cc1cc2c(c(O)c1O)C(=O)c1c(O)cc(O)cc1C2=O` the cell viability was 113 ± 2.91% (HK-2 co-cultured with HepaRG; MTT; 133.33 µM, 48 h; reference: untreated control).
`C[C@]1(CO)Cc2ncn(-c3ccc(C#N)c(Cl)c3)c2C(=O)O1` — result for “subjects with drug-related orthostatic hypotension”: 0% (human; 10 mg single dose).
Under “any TEAE incidence”, `CO[C@H]1C[C@@H]2CC[C@@H](C)[C@@](O)(O2)C(=O)C(=O)N2CCCC[C@H]2C(=O)O[C@H]([C@H](C)C[C@@H]2CC[C@@H](OC(=O)NCCOCCOCCOCCOCCOCCOCCOCCOCCC(=O)N3CCc4cc(Cn5nc(-c6ccc7oc(N)nc7c6)c6c(N)ncnc65)ccc4C3)[C@H](OC)C2)C[C@@H](O)[C@H](C)/C=C(\C)[C@@H](O)[C@@H](OC)C(=O)[C@H](C)C[C@H](C)/C=C/C=C/C=C/1C` is recorded as 66.7% (phase 1 dose escalation; advanced solid tumour patients; intravenous, 12 mg weekly, grade ≥3).
`CC(=O)OC[C@H]1O[C@@H](Oc2cc(O)cc3cc4oc(C)cc(=O)c4c(O)c23)[C@H](O)[C@@H](O)[C@@H]1O` has a cell viability of 119 ± 14.3% (HepaRG co-cultured with HK-2; MTT; 33.33 µM, 24 h; reference: untreated control).

Repeated from above:
`O=C1c2ccccc2C(=O)c2ccccc21` gave a cell viability of 65.1 ± 5.75% (HepaRG co-cultured with HK-2; MTT; 66.67 µM, 48 h; reference: untreated control).
